Measurements of several laboratories.
A part holds a random share of what one study measured. Changes are numbered by the printed parent chain.

Series 1 — target: CCND2, cyclin fold, Cln2 fusion (human); technique: yeast growth competition, sequencing; matrix: yeast; notes: weak parent motif; relative to: not given; direction: higher = stronger binding
Starting sequence: CDKN1B docking peptide (human); PSACRNLFGPVDH
`D12C` — result for “normalised enrichment score”: 0.363.
For `C4P`, “normalised enrichment score” read 0.109.
`F8E`: “normalised enrichment score” 0.0783.
Under “normalised enrichment score”, `P10S` is recorded as 0.0766.
For `F8K`, “normalised enrichment score” read 0.779.
`F8P` — result for “normalised enrichment score”: -0.0431.
For `L7P`, “normalised enrichment score” read -0.187.
`D12S` — result for “normalised enrichment score”: -0.0406.
For `H13C`, “normalised enrichment score” read 0.25.
Under “normalised enrichment score”, `N6A` is recorded as 0.39.
`L7A` — result for “normalised enrichment score”: 0.117.
Under “normalised enrichment score”, `S2M` is recorded as -0.0278.
For `H13Y`, “normalised enrichment score” read 0.115.
`C4Q` — result for “normalised enrichment score”: 0.0629.

Series 2 — technique: competition protein-binding microarray; molecule type: double-stranded DNA, one strand shown; matrix: in vitro; tested at: 2 µM; together with: Cbf1 competitor, 0.05 µM; direction: higher = stronger binding
Target: Phosphate system positive regulatory protein PHO4, full length, GST-tagged (PHO4, Saccharomyces cerevisiae, UniProt P07270, residues 1-312)
Notes: whole 60-bp probe, lowest competitor level
Target sequence (chain): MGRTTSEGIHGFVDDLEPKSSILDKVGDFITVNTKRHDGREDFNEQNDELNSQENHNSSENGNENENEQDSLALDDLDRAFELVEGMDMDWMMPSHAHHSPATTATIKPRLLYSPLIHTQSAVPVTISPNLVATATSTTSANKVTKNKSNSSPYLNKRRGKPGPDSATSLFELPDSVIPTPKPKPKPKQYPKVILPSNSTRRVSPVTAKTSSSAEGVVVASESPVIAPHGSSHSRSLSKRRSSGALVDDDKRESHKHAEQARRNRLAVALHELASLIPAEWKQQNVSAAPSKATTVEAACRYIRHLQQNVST
`CTAACGAAGGTTTGATCAGTGGGTGACAAGCCAAGTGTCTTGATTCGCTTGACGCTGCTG` has a fluorescence intensity of 3330 a.u.
For `CTTCTGTAAATTTGTCACTGAACTTGACGCGCCCCGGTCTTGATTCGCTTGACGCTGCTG`, the fluorescence intensity was 2870 a.u.
With `TACTGTACCAATCACCACGTTTTGACTATGTGGACTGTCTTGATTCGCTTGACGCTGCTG` the fluorescence intensity was 14200 a.u.
`CGTCCTAGTGATTTTCACGTGCAGTCCATGAGGAAGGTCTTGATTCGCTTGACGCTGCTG` has a fluorescence intensity of 15900 a.u.
For `CTTCTGTAAATTTTTCACGTGGGTTGACGCGCCCCGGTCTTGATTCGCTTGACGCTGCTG`, the fluorescence intensity was 12800 a.u.
`CGTCCTAGTGATTTTCACGTGGGCTCCATGAGGAAGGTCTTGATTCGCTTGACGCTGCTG` gave a fluorescence intensity of 13900 a.u.
With `GTCTTGTCTCATTTTCACGTGCCTTTCCCCACTTCAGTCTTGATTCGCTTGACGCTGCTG` the fluorescence intensity was 14600 a.u.
For `AAAGCGGTAATTTTTCACGTGTTATCAAATATCTATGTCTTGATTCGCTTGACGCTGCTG`, the fluorescence intensity was 15100 a.u.
With `CTTCTGTAAATTTTTCACGTGATATGACGCGCCCCGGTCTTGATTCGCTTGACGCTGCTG` the fluorescence intensity was 10800 a.u.
`TAAACTTCGAATTCCTTCGTGCTTTACTAAGACAAAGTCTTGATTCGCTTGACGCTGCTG` has a fluorescence intensity of 5820 a.u.
`ATATAAAGTTGTCCTCACATGCGGCGTCCATTGTTCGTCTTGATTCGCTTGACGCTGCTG` gave a fluorescence intensity of 7520 a.u.
The fluorescence intensity of `TATAGCTCTTTAATGCACATGCAAATGCGGTGGCGCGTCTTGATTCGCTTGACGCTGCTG` is reported as 9080 a.u.
The fluorescence intensity of `GCCCATTCTGTGGTGAATGTGACGGAGCAGTTTGAGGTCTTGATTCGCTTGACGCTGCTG` is reported as 5130 a.u.
For `CGCTTCATATAATGTTTTTTGATTTGCAGCAAATGCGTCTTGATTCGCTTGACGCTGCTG`, the fluorescence intensity was 3710 a.u.
`ACCTGCACCGCCACCCCTTCCAGATCTATTTAAAACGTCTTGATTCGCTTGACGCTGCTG` gave a fluorescence intensity of 5540 a.u.
`GGCCATCCGCTCCGTCACGGGCCAATCGAAGCTCTTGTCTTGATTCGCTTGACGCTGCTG` has a fluorescence intensity of 5730 a.u.
`CTAACGAAGGTTTGGTACGTGGGTGACAAGCCAAGTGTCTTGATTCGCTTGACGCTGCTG` gave a fluorescence intensity of 7300 a.u.
With `TTTCAAAATCGTTTGCACGTGCTTTCGACTGCACTGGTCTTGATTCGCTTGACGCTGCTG` the fluorescence intensity was 18300 a.u.
`ACTGGGCGCAACAAACACCTGATGTAACTCCTACCCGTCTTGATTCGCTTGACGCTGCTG` has a fluorescence intensity of 4660 a.u.

Series 3 — technique: DHFR PCA, deep sequencing; matrix: yeast; together with: (+)-ABA 2500 µM; relative to: wild-type fitted maximum; direction: higher = stronger binding
Target: ABI1, truncated, D143A, DHFR fusion (Arabidopsis thaliana)
Notes: methotrexate growth selection, single substitutions
Starting sequence: PYL1, truncated, DHFR fusion (Arabidopsis thaliana); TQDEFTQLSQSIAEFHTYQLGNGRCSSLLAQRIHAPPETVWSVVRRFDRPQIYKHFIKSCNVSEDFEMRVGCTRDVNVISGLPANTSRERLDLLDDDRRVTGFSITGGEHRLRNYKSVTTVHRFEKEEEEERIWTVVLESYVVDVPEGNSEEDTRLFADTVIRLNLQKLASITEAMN
For `I57L`, “relative binding score” read 96.8%.
For `S150I`, “relative binding score” read 85.1%.
Under “relative binding score”, `E109G` is recorded as 97.7%.
For `A175C`, “relative binding score” read 96.4%.
For `E4M`, “relative binding score” read 97.1%.
For `R155I`, “relative binding score” read 96%.
`N61Y` — result for “relative binding score”: 98.2%.
`K116H`: “relative binding score” 96.4%.
`V136I` — result for “relative binding score”: 97.6%.
`L20A`: “relative binding score” 98.6%.
Under “relative binding score”, `F47G` is recorded as 7.75%.
Under “relative binding score”, `D75G` is recorded as 93.7%.
For `S150H`, “relative binding score” read 92.1%.

Mixed results
`PhoQ, residues 284 288 289 292 302 303 SSYNSA` has a fold induction of 2.63 (PhoP, residues 12 14 15 18 19 QWHVF (Escherichia coli, UniProt P23836); Sort-seq, measured: YFP reporter; E. coli; PhoQ-PhoP variant library, together with: 10 µM Mg2+; relative to: high Mg2+ state, higher = stronger signaling).

For quick reference, copied from above (series 2):
`ACTGGGCGCAACAAACACCTGATGTAACTCCTACCCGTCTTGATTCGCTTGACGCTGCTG` has a fluorescence intensity of 4660 a.u.
`CTAACGAAGGTTTGATCAGTGGGTGACAAGCCAAGTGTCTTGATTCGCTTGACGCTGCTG` has a fluorescence intensity of 3330 a.u.
The fluorescence intensity of `TATAGCTCTTTAATGCACATGCAAATGCGGTGGCGCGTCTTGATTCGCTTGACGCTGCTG` is reported as 9080 a.u.
